Assay results collected from several papers.
Each line is one published result; not all experiments were run side by side. ± marks the error that the study gave. The star is where a group is joined.

Substance | target | assay | system | conditions | how to read | quantity | value
AWSHPQFEKGGGSGGG | Kelch domain-containing protein 2 (UniProt Q9Y2U9) | native mass spectrometry | peptide, 200 mM ammonium acetate | 20 µM Kelch domain-containing protein 2, pH 7 | reference: total Kelch domain-containing protein 2 signal | fraction of protein bound | 0.5%
Ac-LDEVD-pNA (N-acetyl, C-pNA; pNA = O=[N+]([O-])c1ccc(N*)cc1) | Caspase-7 (CASP7, Homo sapiens, UniProt P55210) | substrate hydrolysis, substrate, colorimetric | – | pH 7.5 | – | kcat | 58 ± 3 min⁻¹
CCCCCCCCCCCCCC(=O)O[C@@H]1[C@@H](C)[C@@]2(O)[C@@H](C=C(CO)C[C@]3(O)C(=O)C(C)=C[C@@H]23)[C@@H]2C(C)(C)[C@]12OC(C)=O | Adora2b (Rattus norvegicus, UniProt P29276) | agonist-induced cAMP accumulation | H9c2 | 40 min pretreatment | – | concentration for maximal enhancement | ~10 nM
CC(C)(NC(=O)c1nn(CC2CCOCC2)c2ccccc12)c1cccc(C(N)=O)c1 | CNR2 (Homo sapiens, UniProt P34972) | calcium mobilization, agonist | CHO-K1 expressing Gαq16 | – | reference: CP55,940 maximum | Emax | 57 ± 3%
C1=C(/c2cncnc2)CCCNCC/1 | Chrnb2/Chrna6 (Rattus norvegicus, UniProt P12390+P43143, L273S/L280S/L348M/R364A/R365A/R367A) | ion current, agonist | – | concentration not given, rat receptor, unit not given | reference: acetylcholine maximum current | efficacy | 0.59 ± 0.04
CC1(C)Oc2cc([C@]34CC5CC(C[C@@](N=[N+]=[N-])(C5)C3)C4)cc(O)c2[C@@H]2C[C@H](O)CC[C@H]21 | Cnr1 (Rattus norvegicus, UniProt P20272) | radioligand binding Bmax reduction | rat brain membranes | 10-fold Ki, together with: [3H]CP-55,940 | reference: untreated | covalent labeling | 61%
CSc1cccc(CC(=O)N[C@H]2CCOC2=O)c1 | lasR (Pseudomonas aeruginosa, UniProt P25084) | reporter gene, agonist | Escherichia coli JLD271/pJN105L/pSC11 | 100 µM | reference: OdDHL 100 µM | activation | 32%
O=[PH](O)O | Orotidine 5'-phosphate decarboxylase (Saccharomyces cerevisiae S288c, UniProt P03962, D37G) | decarboxylation of FO, activator | – | concentration not given, D37G variant | reference: wild type | increase in ΔG activation | < 1 kcal/mol
Oc1ccc(-c2c(Cl)c(Cl)cc(Cl)c2Cl)c(Cl)c1 | Aequorin-1 (Aequorea victoria, UniProt P07164, C152S/C159S/C187S) | aequorin bioluminescence, inhibitor | – | 2 h, together with: coelenterazine | – | detection limit | 1.23 µM
COc1cccc(Oc2ccc(C(=O)N[C@H](CN3CCN(c4cccc(O)c4)[C@@H](C)C3)C(C)C)cc2)c1 | OPRK1 (Homo sapiens, UniProt P41145) | antagonist | CHO | together with: U69593 | – | Ke | 0.63 ± 0.13 nM
TNFFELTTKLHR | HIV-1 neutralising antibody 4E10 | phage binding, M13 phage ELISA | peptide | concentration not given | lower = stronger binding | binding titer | 1.4e+07 M13/mL
CC[C@H]1O[C@]2(C)[C@H](OC(C)=O)[C@@]1(C)O[C@@H](/C=C/C=C/C=C/c1oc(=O)cc(OC)c1C)[C@@H]2O | atpD, in F1Fo complex (Escherichia coli, UniProt P0ABB4) | ATP hydrolysis, single-molecule FRET | liposome-reconstituted F1Fo-ATPase | 20 µM, together with: 1 mM ATP | – | mean dwell time | 42 ms
Ac-QDEVD-pNA (N-acetyl, C-pNA; pNA = O=[N+]([O-])c1ccc(N*)cc1) | Caspase-3 (CASP3, Homo sapiens, UniProt P42574) | substrate, colorimetric p-nitroanilide release | – | pH 7.5, room temperature | – | kcat | 57 ± 3 min⁻¹
CCCCCCCCCCCCCC(=O)O[C@@H]1[C@@H](C)[C@@]2(O)[C@@H](C=C(CO)C[C@]3(O)C(=O)C(C)=C[C@@H]23)[C@@H]2C(C)(C)[C@]12OC(C)=O | Yes kinase, rat | refers to: Yes pY416 | – | 1 µM, 5 min | reference: untreated control | phosphorylation level | 202 ± 34%
Cc1cc(O)ccc1-c1cc(Br)c(-c2ccc(O)cc2C)[se]1 | Estrogen receptor (ESR1, Homo sapiens, UniProt P03372) | antagonist | HEK293T | highest tested concentration, together with: estradiol 10 nM | reference: estradiol alone | efficacy | 93 ± 11%
CC1=NN(c2ccccc2)C(=S)/C1=C/Nc1c(Br)cc(Br)cc1Br | srtA (Staphylococcus aureus, UniProt Q2FV99) | enzyme activity, inhibitor | – | concentration not given | – | potency improvement | ~15 fold
Cc1cc(-c2ccc(-c3cc(C)c(O)c(C)c3)[se]2)cc(C)c1O | ESR2 (Homo sapiens, UniProt Q92731) | antagonist | HEK293T | highest tested concentration, 24 h, together with: estradiol 10 nM | reference: estradiol alone | efficacy | 86 ± 13%
COP(=O)(OC)OCc1ccc(C=O)o1 | Hemoglobin subunit alpha, with beta chain (HBA1, Homo sapiens, UniProt P69905) | refers to: haemoglobin A adduct | human normal whole blood | 2 mM, 24 h, hematocrit 30% | – | peak modification | 12.7%
N[C@@H](Cc1ccc(O)c(I)c1)C(=O)O | Iodotyrosine deiodinase (Haliscomenobacter hydrossis, UniProt F4KU78) | substrate | – | pH 7.4 | – | kcat | 34.8 ± 0.3 min⁻¹
O=c1[nH]c(/C=C/c2cc(O)ccc2O)c([N+](=O)[O-])c(=O)[nH]1 | Riboflavin synthase (ribC, Escherichia coli, UniProt P0AFU8) | enzyme activity, substrate | Escherichia coli, recombinant riboflavin synthase | pH 7.0 | – | Ks | 3.4 ± 0.3 µM

A few entries again:
Substance | target | assay | system | conditions | how to read | quantity | value
CC1(C)Oc2cc([C@]34CC5CC(C[C@@](N=[N+]=[N-])(C5)C3)C4)cc(O)c2[C@@H]2C[C@H](O)CC[C@H]21 | Cnr1 (Rattus norvegicus, UniProt P20272) | radioligand binding Bmax reduction | rat brain membranes | 10-fold Ki, together with: [3H]CP-55,940 | reference: untreated | covalent labeling | 61%
CSc1cccc(CC(=O)N[C@H]2CCOC2=O)c1 | lasR (Pseudomonas aeruginosa, UniProt P25084) | reporter gene, agonist | Escherichia coli JLD271/pJN105L/pSC11 | 100 µM | reference: OdDHL 100 µM | activation | 32%
